# Measurements gathered from unrelated publications.
# Each line is one published result; not all experiments were run side by side. Several values in a cell are separate wells, animals, samples, runs or records. Numbers after ± are the reported error.
Molecule,test,test system,setting,how to read,endpoint,result
COc1ccc2c(c1OC)C(=O)O[C@@H]2[C@H]1c2c(cc3c(c2OC)OCO3)CCN1C,shake-flask,Captex 355,37 °C,,thermodynamic solubility,3.37 ± 0.11 mg/g
COc1ccc2nc([S@@+]([O-])Cc3ncc(C)c(OC)c3C)[nH]c2c1,,human healthy,"40 mg, oropharyngeal pain",,adverse events,8%
CS(=O)(=O)n1cc2c(n1)CN([C@H]1CO[C@H](c3cc(F)ccc3F)[C@@H](N)C1)C2,,"male human, urine","oral, 400 mg, single dose, fasted, healthy volunteers",,renal clearance,45 mL/min
CC(C)NC[C@@H](C(=O)N1CCN(c2ncnc3c2[C@H](C)C[C@H]3O)CC1)c1ccc(Cl)cc1,,"human, Healthy hepatic function, plasma","oral, 100 mg single dose, NCI classification, geometric mean",,AUC(0-72 h),0.263 µg·h/mL
CC(C)n1nc(-c2ccc3oc(N)nc3c2)c2c(N)ncnc21,,"human, fasted","oral, 4 mg, unmilled vs milled capsules",,PK profile difference,no effect
acyl ghrelin (human),,"Ghsr knockout mice, whole brain","intravenous, dose not given, 10 min, vascular space corrected",,tissue/serum ratio,5.48 µL/g
Cc1nc2cccc(OCC(C)(C)C(=O)NC(C)C)c2c(N)c1C(=O)O,,"Sprague-Dawley rat (both sexes), plasma","dietary, 30 mg/kg/day, day 7",,Tmax,1.5 h
CC(=O)c1c(C)c2cnc(Nc3ccc(N4CCNCC4)cn3)nc2n(C2CCCC2)c1=O,,"human patients, plasma","oral, 125 mg once daily, cycle 1 day 15, steady state, with: letrozole 2.5 mg once daily",,"AUC(tau), geometric mean",1.98 µg·h/mL
COc1ccc2c(c1)c(CC(=O)O)c(C)n2C(=O)c1ccc(Cl)cc1,shake-flask,Captex 355,37 °C,,thermodynamic solubility,4.8 ± 0.34 mg/g
O=c1cc(-c2ccccc2)oc2cc(O)c(O)c(O)c12,mass spectrometry,Caco-2,"40 µM, 6 h",,Papp A→B,28.9 nm/s
CC(C)[C@H](N)C(=O)OCC1(CO)C/C1=C/n1cnc2c(=O)[nH]c(N)nc21.Cl (mixture of isomers),item: prodrug,"Swiss-Webster mouse (male), plasma","intravenous, 24.6 mg/kg, one-compartment model",,Vd,93.5 L/kg
C[C@]12CC[C@@H]3c4ccc(O)cc4CC[C@H]3[C@@H]1C[C@@H](O)[C@@H]2O,GC-MS,"breast cancer women on NSAI, serum","vaginal, 0.03 mg daily, 3 h, day 28",,median serum concentration,0 ng/mL
COC(=O)C[C@](O)(CCCC(C)(C)O)C(=O)O[C@@H]1C(OC)=C[C@]23CCCN2CCc2cc4c(cc2[C@H]13)OCO4,,"CD1 mouse, brain","subcutaneous, 1 mg/kg, 24 h, below quantification limit 1.00 ng/mL",,tissue concentration,not detected
Cc1c(Cl)c(C)[n+]([O-])c(Cl)c1-c1noc(-c2cc(O)c(O)c([N+](=O)[O-])c2)n1,,"human, male, urine, faeces, expired air","oral, 100 mg, 144 h",reference: dose,total radioactivity recovered,> 90%
CCCC[C@@H]1NC(=O)[C@@H](NC(=O)[C@H](CCC(=O)O)NC(=O)CNC(=O)CN2CCN(CC(=O)O)CCN(CC(=O)O)CCN(CC(=O)O)CC2)CCCCNC(=O)C[C@@H](C(N)=O)NC(=O)[C@H](C(C)C)NC(=O)[C@@H]2CCCN2C(=O)[C@H](CCCNC(=N)N)NC(=O)CNC(=O)[C@H](Cc2c[nH]c3ccccc23)NC(=O)[C@H](CCCNC(=N)N)NC(=O)[C@@H](Cc2ccccc2)NC(=O)[C@H](Cc2c[nH]cn2)NC(=O)[C@H](CCC(=O)O)NC1=O [indium-111 labelled],,"normal C57 mice, stomach","intravenous, 0.037 MBq, 4 h",,tissue uptake,0.08 ± 0.06 %ID/g
N[C@@H](CC(=O)N1CCn2c(nnc2C(F)(F)F)C1)Cc1cc(F)c(F)cc1F,,"healthy Korean subjects, plasma","oral, 100 mg single dose, ABCB1 G2677T/A GA",,AUC(0-2 h),0.453 ± 0.169 µg·h/mL
Oc1ccc(C(c2ccc(O)cc2)(C(F)(F)F)C(F)(F)F)cc1,item: free compound,"Hsd:Sprague Dawley rat male, plasma","oral gavage, 110 mg/kg single dose",,alpha half-life,0.918 h
C=CC(N)CCC(=O)O (stereo not drawn),,"male Sprague-Dawley rat, plasma","oral, 10 mg/kg, formulation 8, with: infant formula 1500 mg/kg",,Tmax (median),0.67 h
CC[C@H](C)[C@H](NC(=O)[C@H](CC(C)C)NC(=O)[C@H](Cc1c[nH]c2ccccc12)NC(=O)[C@H](C)NC(=O)[C@@H](NC(=O)[C@H](Cc1ccccc1)NC(=O)[C@H](CC(=O)O)NC(=O)[C@H](CCCNC(=N)N)NC(=O)[C@H](C)NC(=O)[C@H](C)NC(=O)[C@H](CC(C)C)NC(=O)[C@H](C)NC(=O)[C@H](CC(=O)O)NC(=O)[C@H](CC(C)C)NC(=O)[C@@H](NC(=O)[C@@H](NC(=O)[C@H](C)NC(=O)[C@H](CC(C)C)NC(=O)[C@H](CCC(=O)O)NC(=O)[C@H](CO)NC(=O)[C@H](CO)NC(=O)[C@H](Cc1ccccc1)NC(=O)[C@@H](NC(=O)CNC(=O)[C@H](CCC(=O)O)NC(=O)CNC(=O)[C@@H](N)Cc1cnc[nH]1)[C@@H](C)O)[C@@H](C)O)[C@@H](C)CC)[C@@H](C)CC)C(=O)N[C@@H](C)C(=O)N[C@H](C(=O)N[C@@H](CCCCN)C(=O)N[C@H](C(=O)N[C@H](C(=O)N[C@@H](CC(=O)O)C(=O)N[C@@H](CCCCN)C(=O)N[C@@H](CCCCN)C(=O)N[C@@H](CCCCN)C(=O)N[C@@H](CCCCN)C(=O)N[C@@H](CCCCN)C(=O)N[C@@H](CCCCN)C(N)=O)[C@@H](C)O)[C@@H](C)CC)[C@@H](C)O,immunoaffinity LC-MS/MS,"healthy human subjects, plasma","subcutaneous, 10 mg once weekly, day 36 after 6 doses, steady state, geometric mean",,AUClast,1.04 nM·h
CCCOc1ccc([C@H]2CNC(=O)N2c2ccc3[nH]cnc3c2)cc1,,"non-elderly adults, fasted, plasma","oral, 200 mg twice daily, day 11, 2 to 12 h postdose, oral solution, geometric mean",,effective half-life,2.72 h
Cc1cc(-c2cc(OC(=O)c3ccccc3)ccc2Cl)cc2nnc(Nc3ccc(OCCN4CCCC4)cc3)nc12,,"Dutch Belted rabbit, choroid","topical ocular, 40 µL drop of 0.6%, 2 h",,tissue concentration,34 nM
COc1c(N2C[C@@H]3CCCN[C@@H]3C2)c(F)cc2c(=O)c(C(=O)O)cn(C3CC3)c12,,"male Hartley guinea pig, anaesthetized","intravenous infusion, 5 mg/kg, 10 min infusion",reference: baseline,QTc change,11.2 ± 3%
COc1ccc(Cl)cc1C(=O)NCCc1ccc(S(=O)(=O)NC(=O)NC2CCCCC2)cc1,shake-flask,polysorbate 80,37 °C,,thermodynamic solubility,10.5 ± 0.22 mg/g
CC(C)=CCC[C@](C)(O[C@@H]1O[C@H](CO)[C@@H](O)[C@H](O)[C@H]1O)[C@H]1CC[C@]2(C)[C@@H]1[C@H](O)C[C@@H]1[C@@]3(C)CC[C@H](O[C@@H]4O[C@H](CO)[C@@H](O)[C@H](O)[C@H]4O)C(C)(C)[C@@H]3CC[C@]12C,LC-MS/MS,"healthy female volunteers, serum","oral, 3 g fermented red ginseng",,AUC(0-inf),0.0231 ± 0.0167 µg·h/mL
Cc1ccc2c(=O)n(-c3ccc(F)cc3)c(CCN3C(=O)c4cccc(OC(C)C)c4C3=O)nc2c1,shake flask,PBS,pH 7.4,,logD,3.5
CCCS(=O)(=O)Nc1ccc(F)c(C(=O)c2c[nH]c3ncc(-c4ccc(Cl)cc4)cc23)c1F,,"human patients, urine and feces","oral, 960 mg, 18 days, steady state, radiolabelled",reference: dose,radioactivity recovery,95% and ~95%
CS(=O)(=O)OC[C@H](O)[C@@H](O)COS(C)(=O)=O,,"Wistar rat, female, red blood cells","intraperitoneal, 500 mg/kg, 1 h",,concentration in red blood cells,158 µM and 204 µM and 741 µM
CCOc1ccc(Cc2cc([C@]34OC[C@](CO)(O3)[C@@H](O)[C@H](O)[C@H]4O)ccc2Cl)cc1,,"human type 2 diabetes, normal renal function, urine","oral, 15 mg, 0-96 h",reference: dose,urinary excretion unchanged,0.995%
CCCCN1C(=O)c2ccccc2NC12C(=O)N(C)c1ccc(Br)cc12 (stereo not drawn),shake flask,aqueous buffer,pH 7.4,,logD,3.7
COc1cc(F)c(F)c(Nc2ccc(I)cc2F)c1NS(=O)(=O)C1(C[C@H](O)CO)CC1,,"human patients, plasma","oral, 50 mg twice daily, cycle 1 day 15, with: copanlisib 0.4 mg/kg intravenous weekly",,AUC(0-8 h),6.17 µg·h/mL
CC(C)(Oc1ccc(CCNC(=O)c2ccc(Cl)cc2)cc1)C(=O)O,shake-flask,Captex 355,37 °C,,thermodynamic solubility,0.22 ± 0.01 mg/g
CCCCCCCCCc1nc2cc(Cl)ccc2c(=O)n1N,,"rat, male, Sprague-Dawley, lung","intratracheal, 0.067 mg/kg",,fraction in epithelial lining,> 98%
CCOC(=O)C1=C(C)NC(C)=C(C(=O)OC)C1c1cccc(Cl)c1Cl (stereo not drawn),shake-flask,Captex 355,37 °C,,thermodynamic solubility,26.4 ± 1.75 mg/g
C/C=C/C=C/C=C/CC/C=C/C(=O)NCC(C)(C)O,,"rat, small intestine site 4 contents","oral, dose not given, 2 h, no β-glucuronidase treatment",reference: ingested amount,recovery,0.01%
CCCSc1ccc2nc(NC(=O)OC)[nH]c2c1,shake-flask,Captex 355,37 °C,,thermodynamic solubility,0.39 ± 0.05 mg/g
CCCC[C@H](NC(C)=O)C(=O)N[C@H]1CCC(=O)NC[C@@H](C(=O)N[C@@H](Cc2c[nH]c3ccccc23)C(N)=O)NC(=O)[C@H](CCCNC(=N)N)NC(=O)[C@@H](Cc2ccccc2)NC(=O)[C@H](Cc2c[nH]cn2)NC1=O,,"beagle dog, female, plasma","subcutaneous, 1.5 mg/kg daily, day 28",,AUC(0-last),0.21 µg·h/mL

# Repeated from above:
Molecule,test,test system,setting,how to read,endpoint,result
CCCOc1ccc([C@H]2CNC(=O)N2c2ccc3[nH]cnc3c2)cc1,,"non-elderly adults, fasted, plasma","oral, 200 mg twice daily, day 11, 2 to 12 h postdose, oral solution, geometric mean",,effective half-life,2.72 h
Cc1cc(-c2cc(OC(=O)c3ccccc3)ccc2Cl)cc2nnc(Nc3ccc(OCCN4CCCC4)cc3)nc12,,"Dutch Belted rabbit, choroid","topical ocular, 40 µL drop of 0.6%, 2 h",,tissue concentration,34 nM
COc1c(N2C[C@@H]3CCCN[C@@H]3C2)c(F)cc2c(=O)c(C(=O)O)cn(C3CC3)c12,,"male Hartley guinea pig, anaesthetized","intravenous infusion, 5 mg/kg, 10 min infusion",reference: baseline,QTc change,11.2 ± 3%
COc1ccc(Cl)cc1C(=O)NCCc1ccc(S(=O)(=O)NC(=O)NC2CCCCC2)cc1,shake-flask,polysorbate 80,37 °C,,thermodynamic solubility,10.5 ± 0.22 mg/g
